Published values pooled from the literature.
Compare with care: the assays were run in different laboratories. Numbers after ± are the reported error.

SMILES | test | system | setting | how to read | measurement | result
CC(C)c1cnc(-c2cc(Cl)ccc2F)cc1Nc1ccncc1C(=O)NC(CO)CO | item: hepatic haemorrhage | human patients | oral, dose not given, grade 3 | – | patients with related SAE | 2.4%
COC(=O)C(c1ccccc1Cl)N1CCC(SCC(=O)c2cccc(OC)c2)C(=CC(=O)O)C1 (mixture of isomers) | HPLC-MS/MS | feline citrate plasma | 100 ng/mL, 6 h, -20 °C, storage stability | – | deviation from nominal | -5%
Cc1[nH]c(/C=C2\C(=O)Nc3ccc(F)cc32)c(C)c1NC(=O)CCN1CCN(C)CC1 | – | Beagle dog, both sexes, plasma | oral, 3 mg/kg | – | elimination rate constant | 0.07 ± 0.01 h⁻¹
CC/C=C\C/C=C\C/C=C\C/C=C\C/C=C\CCCCOC(CC)C(=O)O (stereo not shown) | [14C] label | Wistar rat, muscle | dose not given, 3 day | – | radioactivity concentration | not detected
CC[C@H](C)[C@H](NC(=O)[C@H](Cc1ccccc1)NC(=O)[C@H](CCC(=O)O)NC(=O)[C@H](CCCCN)NC(=O)[C@H](C)NC(=O)[C@H](C)NC(=O)[C@H](CCC(N)=O)NC(=O)CNC(=O)[C@H](CCC(=O)O)NC(=O)[C@H](CC(C)C)NC(=O)[C@H](Cc1ccc(O)cc1)NC(=O)[C@H](CO)NC(=O)[C@H](CO)NC(=O)[C@@H](NC(=O)[C@H](CC(=O)O)NC(=O)[C@H](CO)NC(=O)[C@@H](NC(=O)[C@H](Cc1ccccc1)NC(=O)[C@@H](NC(=O)CNC(=O)[C@@H](N)CCC(=O)O)[C@@H](C)O)[C@@H](C)O)C(C)C)C(=O)N[C@@H](C)C(=O)N[C@@H](Cc1c[nH]c2ccccc12)C(=O)N[C@@H](CC(C)C)C(=O)N[C@H](C(=O)N[C@@H](CCCCN)C(=O)NCC(=O)N[C@@H](CCCNC(=N)N)C(N)=O)C(C)C | – | mouse, plasma | intraperitoneal, 500 µg | – | time to appearance of GLP-1(32-36)amide | ≤ 5 min
Cn1c(=O)oc2ccc(-c3ccc(CC(C#N)NC(=O)C4CNCCCO4)c(F)c3)cc21 (stereo not shown) | item: blood bilirubin increased | human volunteers | oral, 40 mg, single ascending dose fed | – | treatment-related adverse event incidence | 0%
NCCCC(=O)OCC(=O)c1ccc(O)c(C(F)(F)F)c1.O=C(O)C(F)(F)F | photolysis at 300 nm | ammonium acetate buffered acetonitrile-water | pH 5.0, 0.01 mol/L buffer | – | quantum yield of GABA release | 0.23
COc1cc(-c2nc3ccccc3s2)cc(CN(Cc2ccccn2)Cc2ccccn2)c1O | – | methanol-water | 50 µM, 0.1 M NaCl | – | pKa2 | 6.13
CN[C@@H](CCOc1cccc2ccccc12)c1ccccc1 | – | healthy male humans, plasma | oral, 60 mg of dapoxetine, with: udenafil 200 mg | – | terminal half-life | 15 ± 4.55 h
COc1cc(NC(C)=O)c2c(c1O)-c1c(OC)c(OC)cc3c1C(C2)N(C)CC3 (stereo not shown) | – | rat liver homogenate | 5 µg/mL, 4 h, room temperature, short-term storage | – | remaining compound | 103.7 ± 0.7%
Cc1ccccc1/N=N/c1ccc(/N=N/c2c(O)ccc3ccccc23)c(C)c1 | – | rat whole blood QC samples | 5.0 µg/L, 4 h, room temperature, short-term stability | – | measured concentration | 5.04 µg/L
C=CC(=O)Nc1cccc(-c2cnc3[nH]cc(C(=O)NC(C)(C)C)c3n2)c1 | – | mouse | ip, dose not given, 14 days | reference: vehicle | white blood cells and haemoglobin | no effect
N=C(N)NS(=O)(=O)c1ccc(-n2cc(Cn3c(=O)c(Cc4ccccc4)nc4ccccc43)nn2)cc1 | MTT | rat primary colonocytes, Albino rat, male | 72 h, concentration at 100% viability | – | safe concentration | 0.047 ± 0.006 µM
CC(C)[C@H](NC(=O)CNC(=O)[C@H](CCC(N)=O)NC(=O)[C@H](C)N)C(=O)O | – | human male, plasma | intravenous infusion, 10 mg/kg single, 15 min infusion, geometric mean | – | Cmax | 1340 ng/mL
NCCCC(=O)OCC(=O)c1ccc(O)cc1F.O=C(O)C(F)(F)F | photolysis, item: rearranged acid appearance | aqueous HEPES buffer with LiClO4 | pH 7.3 | – | quantum yield | 0.19
O=C(O)C1CN(Cc2ccc(-c3noc(-c4ccc(OCC[18F])c(C(F)(F)F)c4)n3)cc2)C1 | – | rat, bone | intravenous, 1 h | – | tracer uptake | 0.105 %ID/g
COc1ccc(OC)c(/C(=C\c2ccc(O)c(O)c2)C(=O)NCCc2ccc(O)cc2)c1 | – | mouse heparinised whole blood | 2 µg/mL, 120 min | – | conversion to FLZ | ~30%
CCCC[C@H](NC(=O)CNC(=O)CNC(=O)CN1CCN(CC(=O)O)CCN(CC(=O)O)CC1)C(=O)N[C@H]1CC(=O)NCCCC[C@@H](C(N)=O)NC(=O)[C@H](Cc2c[nH]c3ccccc23)NC(=O)[C@H](CCCNC(=N)N)NC(=O)[C@@H](Cc2ccccc2)NC(=O)[C@H](Cc2c[nH]cn2)NC1=O [copper-64 labelled] | – | female C57 mouse, B16/F1 melanoma | intravenous, 0.037 MBq, 2 h | reference: tumour over heart | uptake ratio | 51.6
CC(C)[C@H](NC(=O)[C@@H]1CCCN1C(=O)[C@H](CCCNC(=N)N)NC(=O)[C@H](CS)NC(=O)[C@H](Cc1c[nH]c2ccccc12)NC(=O)[C@H](CCCNC(=N)N)NC(=O)[C@@H](Cc1ccccc1)NC(=O)[C@H](Cc1c[nH]cn1)NC(=O)[C@H](CCC(=O)O)NC(=O)[C@H](CS)NC(=O)[C@H](CS)NC(=O)CNC(=O)[C@@H]1CC(=O)N[C@@H](CCCNC(=N)N)C(=O)NCC(=O)N[C@@H](CC(=O)O)C(=O)N[C@H](Cc2ccc(O)cc2)C(=O)N1)C(N)=O [technetium-99m labelled] | – | C57 mouse, female, B16/F1 melanoma | intravenous, 0.037 MBq, 4 h | reference: tumour over muscle | tumour to tissue ratio | 72.6
CCCC[C@@H]1NC(=O)[C@@H](NC(=O)[C@H](CCC(=O)O)NC(=O)CNC(=O)CN2CCN(CC(=O)O)CCN(CC(=O)O)CCN(CC(=O)O)CC2)CCCCNC(=O)C[C@@H](C(N)=O)NC(=O)[C@H](C(C)C)NC(=O)[C@@H]2CCCN2C(=O)[C@H](CCCNC(=N)N)NC(=O)CNC(=O)[C@H](Cc2c[nH]c3ccccc23)NC(=O)[C@H](CCCNC(=N)N)NC(=O)[C@@H](Cc2ccccc2)NC(=O)[C@H](Cc2c[nH]cn2)NC(=O)[C@H](CCC(=O)O)NC1=O [gallium-67 labelled] | – | C57 mice, B16/F1 flank melanoma | intravenous, 2 h, with: blocking peptide 10 µg | reference: tumour over kidney | tissue ratio | 0.02
COC(=O)c1ccc(-c2cn(Cc3cc(Cl)ccc3O[11CH3])nn2)cc1 | PET, Logan plot | rhesus monkey, hypothalamus | dose not given, 40 min | – | volume of distribution | 0.563 mL/cm³
CCCCCCCCCCCCCCCCCC(=O)N[C@@H](CCCCN)C(=O)N[C@@H](CCCCN)C(=O)N[C@@H](CCCCN)C(=O)N[C@@H](CCCCN)C(=O)N[C@@H](CCCCN)C(N)=O | dynamic light scattering | self-assembled micelles | 25 °C | – | hydrodynamic radius | ~166 nm

SMILES | test | system | setting | how to read | measurement | result
[11CH3]c1ccc2nc(C3CCC3)n(-c3ccc4[nH]ncc4c3)c2n1 | – | standard human adult, kidneys | – | – | absorbed radiation dose | 5.9 µSv/MBq
C#Cc1cccc(N(C(=O)CCl)C(C(=O)NC2CCCCC2)c2ccccn2)c1 (racemic) | HPLC-MS | DPBS | 6 h, 37 °C | – | conversion to pyridinium salt | ~85%
Brc1ccc(Nc2nc(NN=Cc3c[nH]c4ccccc34)nc(N3CCOCC3)n2)cc1 | – | rat liver microsomes | 0.1 µM, pH 7.4 | – | metabolic bioavailability | 57.2%
CCC(=O)N[C@@H](C)C(=O)OCC(=O)N[C@@H](C)C(=O)O | – | water | pH 6, 65 °C | – | depolymerization half-life | 29.4 h
NC[C@@H](C(=O)Nc1ccc(-c2cn[nH]c2)cc1)c1ccccc1 | OECD 405 | New Zealand White rabbit | topical, 0.1 %, 48 h, day 3 | direction not given | conjunctival redness score | 0
CC(C)(O)c1ncc([S@](N)(=O)=NC(=O)Nc2c3c(cc4c2CCC4)CCC3)s1 | – | healthy human, fed | oral, 25 mg twice daily, day 14, tablet formulation, geometric mean | – | AUC(0-tau) | 27100 ng·h/mL
Oc1cccc(-c2cccc(O)n2)n1.[Cl-].[Cl-].[Ru+2].c1cnc2c(c1)ccc1cccnc12.c1cnc2c(c1)ccc1cccnc12 | shake flask | octanol/phosphate buffer | pH 7.00 | – | logD | 1.5
Cc1nc(C)c(C=[N+]([O-])C(C)(C)C)nc1C | – | healthy human, both sexes, serum | oral, 1200 mg twice daily, 7 days | – | AUC(0-tau) | 81300 ng·h/mL
N=C(N)NCCC[C@@H]1NC(=O)[C@H](Cc2c[nH]c3ccccc23)NC(=O)[C@@H](CC2CCCCC2)NC(=O)[C@@H]2CCCN2C(=O)[C@@H](NC(=O)CCc2ccccc2)CCCNC1=O | – | C57BL/6J mouse, spinal cord | intravenous, 1 mg/kg, single dose, two-compartment model | – | redistribution rate constant (K21) | 6.59 h⁻¹
CCCC(CCC)NC(=O)c1ccc(OC2OC(C(=O)O)C(O)C(O)C2O)c(O)c1 (stereo not shown) | – | female Sprague-Dawley rats, plasma | oral, 200 mg/kg of parent drug | reference: 200 over 20 mg/kg dose | Cmax ratio | 3.05
CCCCN1C(=O)c2cccc3c(NCCN4CCOCC4)ccc(c23)C1=O | – | aqueous medium | pH 6 | – | fluorescence brightness | 3520 M⁻¹ cm⁻¹
O=C(O)[C@@H]1C[C@@H](O)CN1C(=O)[C@@H]1CCCN1 | potentiometric titration | – | 40 °C, with: Fe(III) | – | log beta | 8.15
NC12CNCCNCC(NCc3ccc(CNC(=O)CCCC(=O)NCc4ccc(-c5nncnn5)cc4)cc3)(CNCCNC1)CNCCNC2.[64Cu+2] | OLINDA dosimetry | bladder wall | pretargeting, 48 h interval | – | absorbed dose | 0.0365 rad/mCi
CCNC(=O)[C@@]1(c2ccccc2)C[C@H]1CN | – | cynomolgus monkey, male | oral, 30 mg/kg, 0-24 h | reference: dose | urinary excretion | 12.4%
CC(C)N(P(c1ccccc1)c1ccccc1)P(c1ccccc1)c1ccccc1.Cc1ccc(C(C)C)cc1.F[B-](F)(F)F.[Cl][Ru+] | item: ruthenium | BALB/c nude mice, serum | ip, 5 mg/kg | – | apparent clearance | 0.105 L/h
COc1ccc2cc(-c3ccc(-c4ccc(C)cn4)nc3)oc2c1 | TCSPC | acetonitrile | zinc-free ligand | – | radiative decay rate constant | 0.49 ns⁻¹
NCCC(=O)N1Cc2ccccc2-c2c(nnn2-c2cn(C3OC(CO)C(O)C3O)c(=O)[nH]c2=O)-c2ccccc21 (mixture of isomers) | – | methanol | – | – | brightness | 0.09 M⁻¹ cm⁻¹
CC[C@H](C)[C@H](NC(=O)[C@H](CC(C)C)NC(=O)[C@H](Cc1c[nH]c2ccccc12)NC(=O)[C@H](C)NC(=O)[C@@H](NC(=O)[C@H](Cc1ccccc1)NC(=O)[C@H](CC(=O)O)NC(=O)[C@H](CCCNC(=N)N)NC(=O)[C@H](C)NC(=O)[C@H](C)NC(=O)[C@H](CC(C)C)NC(=O)[C@H](C)NC(=O)[C@H](CC(=O)O)NC(=O)[C@H](CC(C)C)NC(=O)[C@@H](NC(=O)[C@@H](NC(=O)[C@H](C)NC(=O)[C@H](CC(C)C)NC(=O)[C@H](CCC(=O)O)NC(=O)[C@H](CO)NC(=O)[C@H](CO)NC(=O)[C@H](Cc1ccccc1)NC(=O)[C@@H](NC(=O)CNC(=O)[C@H](CCC(=O)O)NC(=O)CNC(=O)[C@@H](N)Cc1cnc[nH]1)[C@@H](C)O)[C@@H](C)O)[C@@H](C)CC)[C@@H](C)CC)C(=O)N[C@@H](C)C(=O)N[C@H](C(=O)N[C@@H](CCCCN)C(=O)N[C@H](C(=O)N[C@H](C(=O)N[C@@H](CC(=O)O)C(=O)N[C@@H](CCCCN)C(=O)N[C@@H](CCCCN)C(=O)N[C@@H](CCCCN)C(=O)N[C@@H](CCCCN)C(=O)N[C@@H](CCCCN)C(=O)N[C@@H](CCCCN)C(N)=O)[C@@H](C)O)[C@@H](C)CC)[C@@H](C)O | – | healthy humans, plasma | subcutaneous, 5 mg once weekly, 6 doses, day 36, geometric mean | – | AUC(0-tau) | 0.106 µM·h
COc1cc(OC)cc(C2=C3C(C)=C(I)C(C)=[N+]3[B-](F)(F)n3c(/C=C/c4c[nH]c5ccc([N+](=O)[O-])cc45)c(I)c(C)c32)c1 | – | DMSO | – | – | emission maximum | 651 nm
CC(=O)[CH](C(C)=O)[Pt-2]1([S+](C)C)[O]C(C)=CC(C)=[O+]1 (stereo not shown) | item: platinum | rat, whole blood | intravenous, dose not given | – | clearance | 2.6 mL/h
C=C(c1cc(F)c(C(=O)O)c(F)c1)c1cc2c(cc1C)C(C)(C)CCC2(C)C | – | Sprague-Dawley rat, male | oral, 100 mg/kg, 12 h, sesame oil vehicle | – | blood triglycerides | 181 ± 12.2 mg/dL
